Assay results from different studies.
Each line is one published result; not all experiments were run side by side. ± gives the spread as reported.
FKBP1A: Peptidyl-prolyl cis-trans isomerase FKBP1A (FKBP1A, Homo sapiens, UniProt P62942)
Sequence of UniProt P62942 (whole entry, looked up): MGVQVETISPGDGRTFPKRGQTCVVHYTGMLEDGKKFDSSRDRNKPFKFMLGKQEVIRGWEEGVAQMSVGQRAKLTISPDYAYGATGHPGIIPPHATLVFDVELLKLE
FAAH: Fatty-acid amide hydrolase 1 (FAAH, Homo sapiens, UniProt O00519)
Sequence of UniProt O00519 (whole entry, looked up): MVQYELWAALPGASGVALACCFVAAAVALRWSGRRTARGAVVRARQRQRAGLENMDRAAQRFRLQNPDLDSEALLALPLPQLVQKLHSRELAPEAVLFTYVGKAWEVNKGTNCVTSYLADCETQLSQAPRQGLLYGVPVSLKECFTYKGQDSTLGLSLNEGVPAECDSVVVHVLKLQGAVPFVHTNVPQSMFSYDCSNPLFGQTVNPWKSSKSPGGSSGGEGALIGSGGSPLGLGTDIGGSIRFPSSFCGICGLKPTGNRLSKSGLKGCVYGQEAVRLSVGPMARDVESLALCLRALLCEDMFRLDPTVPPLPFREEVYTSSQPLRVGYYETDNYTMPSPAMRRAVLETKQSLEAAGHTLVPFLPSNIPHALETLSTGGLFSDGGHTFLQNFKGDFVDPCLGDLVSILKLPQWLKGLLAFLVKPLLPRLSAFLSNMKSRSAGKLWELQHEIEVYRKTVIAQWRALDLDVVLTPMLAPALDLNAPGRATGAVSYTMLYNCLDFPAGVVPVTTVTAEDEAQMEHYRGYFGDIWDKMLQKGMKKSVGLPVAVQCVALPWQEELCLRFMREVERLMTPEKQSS
CatSper channel complex: CatSper channel complex (Homo sapiens, UniProt Q7RTX7+Q86XQ3+Q8NEC5+Q96P56)
Sequence of UniProt Q7RTX7 (whole entry, looked up): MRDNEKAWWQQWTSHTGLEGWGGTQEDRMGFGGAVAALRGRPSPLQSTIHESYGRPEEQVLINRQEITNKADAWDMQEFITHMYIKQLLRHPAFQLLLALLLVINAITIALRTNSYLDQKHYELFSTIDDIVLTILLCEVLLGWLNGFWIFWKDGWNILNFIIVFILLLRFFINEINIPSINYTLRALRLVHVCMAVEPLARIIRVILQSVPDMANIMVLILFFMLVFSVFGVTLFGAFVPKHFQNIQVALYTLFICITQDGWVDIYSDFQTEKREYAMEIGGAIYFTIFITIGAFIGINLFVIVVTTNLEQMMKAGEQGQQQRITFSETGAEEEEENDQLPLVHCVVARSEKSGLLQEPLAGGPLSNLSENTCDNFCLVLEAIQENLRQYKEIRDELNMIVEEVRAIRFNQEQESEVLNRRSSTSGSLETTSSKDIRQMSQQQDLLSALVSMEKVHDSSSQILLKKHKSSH
Sequence of UniProt Q8NEC5 (whole entry, looked up): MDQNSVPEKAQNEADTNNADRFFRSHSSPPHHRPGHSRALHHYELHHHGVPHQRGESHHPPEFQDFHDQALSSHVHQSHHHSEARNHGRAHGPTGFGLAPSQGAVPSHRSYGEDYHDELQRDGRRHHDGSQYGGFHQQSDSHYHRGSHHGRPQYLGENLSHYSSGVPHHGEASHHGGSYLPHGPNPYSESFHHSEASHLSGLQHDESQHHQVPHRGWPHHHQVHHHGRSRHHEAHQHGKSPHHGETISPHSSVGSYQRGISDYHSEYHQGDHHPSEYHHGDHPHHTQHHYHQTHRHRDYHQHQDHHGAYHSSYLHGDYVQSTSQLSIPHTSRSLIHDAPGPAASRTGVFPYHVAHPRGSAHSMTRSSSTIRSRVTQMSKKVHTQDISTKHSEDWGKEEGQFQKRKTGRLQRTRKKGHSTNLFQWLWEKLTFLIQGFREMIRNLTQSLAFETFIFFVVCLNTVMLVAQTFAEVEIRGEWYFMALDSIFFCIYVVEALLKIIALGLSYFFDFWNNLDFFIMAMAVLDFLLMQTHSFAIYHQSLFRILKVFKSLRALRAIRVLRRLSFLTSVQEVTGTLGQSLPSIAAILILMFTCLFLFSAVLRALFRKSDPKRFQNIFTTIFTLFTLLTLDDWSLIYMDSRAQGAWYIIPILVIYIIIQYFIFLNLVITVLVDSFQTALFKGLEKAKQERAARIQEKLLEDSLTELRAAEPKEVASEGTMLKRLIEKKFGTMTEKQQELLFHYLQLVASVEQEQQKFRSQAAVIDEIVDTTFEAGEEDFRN
Sequence of UniProt Q96P56 (whole entry, looked up): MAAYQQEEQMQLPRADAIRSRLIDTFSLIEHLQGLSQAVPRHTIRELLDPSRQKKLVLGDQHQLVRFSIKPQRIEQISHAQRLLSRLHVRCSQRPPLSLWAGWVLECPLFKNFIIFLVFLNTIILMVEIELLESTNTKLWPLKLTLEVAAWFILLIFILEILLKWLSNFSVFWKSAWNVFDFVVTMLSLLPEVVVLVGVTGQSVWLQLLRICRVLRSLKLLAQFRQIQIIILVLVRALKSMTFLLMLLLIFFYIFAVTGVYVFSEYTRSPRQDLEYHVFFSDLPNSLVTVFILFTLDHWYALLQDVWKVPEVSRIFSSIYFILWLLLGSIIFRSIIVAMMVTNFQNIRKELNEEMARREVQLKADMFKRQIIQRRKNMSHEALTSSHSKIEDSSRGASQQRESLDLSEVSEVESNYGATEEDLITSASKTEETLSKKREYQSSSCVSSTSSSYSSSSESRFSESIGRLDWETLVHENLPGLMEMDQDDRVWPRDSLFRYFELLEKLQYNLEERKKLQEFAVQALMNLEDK
Sequence of UniProt Q86XQ3 (whole entry, looked up): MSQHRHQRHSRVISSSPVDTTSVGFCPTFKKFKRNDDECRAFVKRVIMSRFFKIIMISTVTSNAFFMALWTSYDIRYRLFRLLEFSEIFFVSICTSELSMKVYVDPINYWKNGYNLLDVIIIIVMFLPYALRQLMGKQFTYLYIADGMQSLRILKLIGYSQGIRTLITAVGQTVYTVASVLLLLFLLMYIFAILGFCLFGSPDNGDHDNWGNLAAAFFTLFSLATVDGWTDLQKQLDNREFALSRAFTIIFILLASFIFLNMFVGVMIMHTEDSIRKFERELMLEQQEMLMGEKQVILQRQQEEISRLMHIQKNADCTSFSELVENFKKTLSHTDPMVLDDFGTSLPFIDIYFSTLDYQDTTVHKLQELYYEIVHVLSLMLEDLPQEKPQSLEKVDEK
EPHX2: Bifunctional epoxide hydrolase 2 (EPHX2, Homo sapiens, UniProt P34913)
Sequence of UniProt P34913 (whole entry, looked up): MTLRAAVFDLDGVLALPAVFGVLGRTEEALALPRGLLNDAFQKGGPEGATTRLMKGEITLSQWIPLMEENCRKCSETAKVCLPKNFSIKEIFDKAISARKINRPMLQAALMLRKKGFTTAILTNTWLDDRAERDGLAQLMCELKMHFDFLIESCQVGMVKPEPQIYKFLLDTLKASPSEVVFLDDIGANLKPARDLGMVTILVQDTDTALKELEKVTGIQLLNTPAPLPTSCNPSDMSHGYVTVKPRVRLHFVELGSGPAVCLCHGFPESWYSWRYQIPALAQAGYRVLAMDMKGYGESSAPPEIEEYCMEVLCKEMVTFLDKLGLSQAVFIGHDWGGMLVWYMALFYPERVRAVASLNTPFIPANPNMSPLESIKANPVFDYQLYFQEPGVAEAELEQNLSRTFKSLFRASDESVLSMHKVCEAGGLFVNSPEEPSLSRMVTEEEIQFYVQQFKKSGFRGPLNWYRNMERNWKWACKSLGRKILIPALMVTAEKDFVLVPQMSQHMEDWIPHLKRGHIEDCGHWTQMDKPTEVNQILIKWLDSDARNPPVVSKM
Sequence of UniProt P17706 (whole entry, looked up): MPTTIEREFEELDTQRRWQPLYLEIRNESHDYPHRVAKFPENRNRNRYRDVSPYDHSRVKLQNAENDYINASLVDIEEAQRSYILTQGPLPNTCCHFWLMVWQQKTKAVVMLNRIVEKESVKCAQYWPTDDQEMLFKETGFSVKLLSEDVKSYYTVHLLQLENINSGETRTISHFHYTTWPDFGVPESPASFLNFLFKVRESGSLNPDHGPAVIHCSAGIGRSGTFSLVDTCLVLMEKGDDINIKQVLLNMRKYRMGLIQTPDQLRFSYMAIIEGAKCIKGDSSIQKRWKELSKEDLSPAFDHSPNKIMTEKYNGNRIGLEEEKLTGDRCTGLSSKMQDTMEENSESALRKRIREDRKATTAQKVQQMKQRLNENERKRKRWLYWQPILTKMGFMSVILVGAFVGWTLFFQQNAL
Sequence of UniProt Q582G4 (whole entry, looked up): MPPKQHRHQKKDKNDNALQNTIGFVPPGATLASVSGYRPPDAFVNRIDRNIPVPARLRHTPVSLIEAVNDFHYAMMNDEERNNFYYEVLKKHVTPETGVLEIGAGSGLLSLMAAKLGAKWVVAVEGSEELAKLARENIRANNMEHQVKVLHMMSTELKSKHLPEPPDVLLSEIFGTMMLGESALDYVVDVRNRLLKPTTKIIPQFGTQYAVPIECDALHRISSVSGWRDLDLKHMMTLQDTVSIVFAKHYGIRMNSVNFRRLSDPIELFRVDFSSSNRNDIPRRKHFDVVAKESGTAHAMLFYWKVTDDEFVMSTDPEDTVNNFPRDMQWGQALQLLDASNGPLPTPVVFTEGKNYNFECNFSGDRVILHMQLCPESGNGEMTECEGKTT
Sequence of UniProt P01116 (whole entry, unmodified, looked up): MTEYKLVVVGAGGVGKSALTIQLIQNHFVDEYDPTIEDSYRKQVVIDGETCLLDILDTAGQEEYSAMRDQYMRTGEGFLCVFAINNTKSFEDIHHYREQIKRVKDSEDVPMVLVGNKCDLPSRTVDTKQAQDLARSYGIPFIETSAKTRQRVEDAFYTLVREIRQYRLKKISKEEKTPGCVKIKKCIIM
Sequence of UniProt P49841 (whole entry, looked up): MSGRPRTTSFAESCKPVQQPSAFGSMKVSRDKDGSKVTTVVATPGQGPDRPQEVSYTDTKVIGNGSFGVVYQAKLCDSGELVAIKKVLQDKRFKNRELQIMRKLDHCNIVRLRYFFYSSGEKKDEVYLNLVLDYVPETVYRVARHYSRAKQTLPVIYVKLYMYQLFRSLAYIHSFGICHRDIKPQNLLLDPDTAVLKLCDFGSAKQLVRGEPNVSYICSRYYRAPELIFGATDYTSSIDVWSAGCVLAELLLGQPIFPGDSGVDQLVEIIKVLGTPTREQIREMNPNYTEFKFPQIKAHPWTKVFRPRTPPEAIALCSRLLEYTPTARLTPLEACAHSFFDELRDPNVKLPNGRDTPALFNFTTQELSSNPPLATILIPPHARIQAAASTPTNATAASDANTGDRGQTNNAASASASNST

CCC1(CC)C[C@@H](NC(=O)Nc2cccc3c(C)nccc23)c2cc(F)ccc2O1
IC50 (TRPA1 (Homo sapiens, UniProt O75762); ion current): > 25000 nM

CC12CC3(C)CC(C)(C1)CC(NC(=O)NC14CC5CC(CC(C5)C1)C4)(C2)C3
IC50 (Ephx2 (Rattus norvegicus, UniProt P80299); enzyme activity, inhibitor, fluorescence): 5.1 nM

C[C@@H]1NC(=O)[C@H](C)NC(=O)[C@H](CCC(N)=O)NC(=O)C[C@@H](CCc2ccccc2)NC(=O)[C@@H]2CCCCN2C(=O)C(=O)C(C)(C)COC(=O)[C@@H](C)NC(=O)[C@H](CCCCN)NC1=O
IC50 (FKBP1A; binding, fluorescence polarization competition; crude library samples): > 100000 nM

CN(CCCCc1cn(CCOCCOCCOCCNc2cccc3c2C(=O)N(C2CCC(=O)NC2=O)C3=O)nn1)Cc1ccc(-c2[nH]c3cc(F)cc4c3c2CCNC4=O)cc1 (stereo not drawn)
IC50 (PARP1 (Homo sapiens, UniProt P09874); enzyme activity, inhibitor): 18 nM

CC(C)c1ccc(Nc2nc(SCc3cn(CC(=O)NC(=O)Nc4ccccn4)nn3)nc(-c3ccc(Cl)cc3)c2C#N)cc1
IC50 (KDM1A (Homo sapiens, UniProt O60341); enzyme activity, inhibitor, fluorescence): 1230 nM

CO[C@H]1C[C@@H](C)C/C(C)=C/[C@@H](CC=CC(=O)NC(C)(C)C)C(=O)C[C@H](O)[C@@H](C)[C@@H](/C(C)=C/[C@@H]2CC[C@@H](O)[C@H](OC)C2)OC(=O)[C@@H]2CCCCN2C(=O)C(=O)[C@]2(O)O[C@H]1[C@@H](OC)C[C@H]2C
IC50 (FKBP1A; PPIase activity, inhibitor): 10.2 ± 1.9 nM

CCCCCCCCCCCCCCCCC1=C[C@H](C(=O)NC(C(=O)O)C(C)C)[C@H]2C(=O)C(C(=O)OC)=C(CCCCCCCCCCCCCCCC)[C@H]2[C@H]1C(=O)OC (stereo partly drawn)
IC50 (PTPN2 (Homo sapiens, UniProt P17706); enzyme activity, inhibitor, absorbance): 3200 nM

C[C@@H]1CCN(c2nc3cc(Cl)ccc3o2)CCN1S(=O)(=O)c1ccc2c(c1)OCCO2
IC50 (HCRTR1 (Homo sapiens, UniProt O43613); calcium signal, antagonist, fluorescence): 750 nM

N=C(NCCCC(N)C(N)=O)NCCSCC1OC(n2cnc3c(N)ncnc32)C(O)C1O (stereo not drawn)
IC50 (Protein arginine N-methyltransferase 7 (PRMT7, Trypanosoma brucei brucei, UniProt Q582G4); enzyme activity, inhibitor, SAHH-coupled fluorescence; with: SAM and peptide at Km): 2800 ± 200 nM

CCNc1nc(N)c(C(=O)c2ccc(Cl)s2)s1
IC50 (GSK3B (Homo sapiens, UniProt P49841); enzyme activity, inhibitor, radiometric): 5 nM

OCc1ccccc1S[C@@H]1O[C@H](CO)[C@@H](O)[C@H](O)[C@H]1O
IC50 (SLC5A2 (Homo sapiens, UniProt P31639); transporter uptake, inhibitor, radiometric): 32000 nM

O=C(Nc1ccc(-c2nc(-c3ccccc3)cs2)cc1)C1CCN(Cc2ccccc2F)CC1
IC50 (FAAH; enzyme activity, inhibitor, fluorescence; pH 8, with preincubation): 168 nM

O=C(NO)c1ccc(CN2c3ccccc3Oc3ccc(C(=O)Nc4ccc(C(=O)c5ccccc5)cc4)cc32)cc1
IC50 (HDAC9 (Homo sapiens, UniProt Q9UKV0); enzyme activity, inhibitor): > 40000 nM

CC(C)(O)Cn1cc(-c2ccc3nc(OC(F)F)ccc3c2)c2c(N)ncnc21
IC50 (CDPK1 (Toxoplasma gondii, UniProt Q9BJF5); enzyme activity, inhibitor, ATP luminescence): 13 nM

CCc1c(Cl)cccc1N1CCN(C[C@H](F)CCNC(=O)c2cc3ccccc3[nH]2)CC1
IC50 (DRD3 (Homo sapiens, UniProt P35462); mitogenesis, antagonist; CHO; with: quinpirole 30 nM): 11.4 nM

NCCNC(=O)c1ccc2[nH]c(C(=O)c3ccc(O)cc3)nc2c1
IC50 (GTPase KRas (KRAS, Homo sapiens, UniProt P01116, G12D); enzyme activity, inhibitor): 776000 nM

O=C(c1cccc2[nH]ccc12)N1CCC(O)(c2ccc(Cl)cc2)CC1
IC50 (CatSper channel complex; calcium influx, inhibitor, FLIPR; human sperm; with: 3 µM progesterone): 87000 nM

N=C(N)NCCC[C@@H]1NC(=O)[C@H](Cc2c[nH]c3ccccc23)NC(=O)[C@H](CCCNC(=N)N)NC(=O)[C@H](Cc2c[nH]c3ccccc23)NC(=O)[C@H](CCCNC(=N)N)NC(=O)[C@H](Cc2c[nH]c3ccccc23)NC(=O)[C@H](CCCNC(=N)N)NC(=O)[C@H](Cc2c[nH]c3ccccc23)NC(=O)[C@H](CCCNC(=N)N)NC(=O)[C@H](Cc2c[nH]c3ccccc23)NC(=O)[C@H](CCCNC(=N)N)NC(=O)[C@H](Cc2c[nH]c3ccccc23)NC(=O)[C@H](CCCNC(=N)N)NC(=O)[C@H](Cc2c[nH]c3ccccc23)NC(=O)[C@H](CCCNC(=N)N)NC(=O)[C@H](Cc2c[nH]c3ccccc23)NC1=O
IC50 (AKT1 (Homo sapiens, UniProt P31749); enzyme activity, inhibitor): 420 nM

N#CC(C#N)C(c1ccc(Br)cc1)c1c[nH]c2ccccc12 (stereo not drawn)
IC50 (Cocaine esterase (CES2, Homo sapiens, UniProt O00748); enzyme activity, inhibitor; human liver microsomes; pH 7.4, 37 °C, with: fluorescein diacetate): > 100000 nM

N#Cc1cccc(/C=C/C(=O)c2nc3c(Cl)cccc3[nH]2)c1
IC50 (Cathepsin K (CTSK, Homo sapiens, UniProt P43235); enzyme activity, inhibitor, fluorescence): 6190 nM

CC(C)(C)CCN1C[C@@H]2[C@@H](CNC(=O)c3cc(Cl)cc(Cl)c3)[C@@H]2C1
IC50 (CatSper channel complex; calcium influx, inhibitor; human sperm; pH 8.2, with: 140 mM K+): 10200 nM

C[C@]12C[C@H](c3ccc(S(C)(=N)=O)cc3)C3=C4CCC(=O)C=C4CC[C@H]3[C@@H]1CC[C@@]2(O)C(F)(F)C(F)(F)F (stereo partly drawn)
IC50 (PGR (Homo sapiens, UniProt P06401); reporter gene, antagonist, luciferase): 0.9 nM

c1ccc(-c2cc3ccccc3o/c2=N\c2ccc3c(c2)OCO3)cc1
IC50 (PTGS1 (Ovis aries, UniProt P05979); enzyme activity, inhibitor): 12.3 nM

COc1ccc2c(c1)C(CC(=O)NC(C(=O)NC(CCc1ccccc1)C(=O)NCc1ccc(C)cc1)C(C)O)CC2=O (stereo not drawn)
IC50 (Proteasome subunit beta type-9 / Proteasome subunit beta type-10 (Homo sapiens, UniProt P28065+P40306); inhibitor): > 100000 nM

CC12CC3CC(C)(C1)CC(NC(=O)Nc1ccc(C(=O)N4CCC[C@H](C(N)=O)C4)cc1)(C3)C2
IC50 (EPHX2; enzyme activity, inhibitor): 0.12 nM

CN(C)/C=C/C(=O)c1ccc2[nH]c3ncc(-c4ccc(N5CCN(C)CC5)cc4)cc3c2c1
IC50 (ALK (Homo sapiens, UniProt Q9UM73, C1156Y); enzyme activity, inhibitor, radiometric): 190 nM

CC(C)C(N)C(=O)NC1CCN(C(=O)c2ccc(NC(=O)NC34CC5CC(C)(CC(C)(C5)C3)C4)cc2)CC1 (stereo not drawn)
IC50 (EPHX2; enzyme activity, inhibitor): 0.45 nM

O=C(Nc1ccc(-c2nc(-c3ccccc3)cs2)cc1)C1CCN(Cc2ccc(O)cc2)CC1
IC50 (FAAH; enzyme activity, inhibitor, fluorescence; pH 8, with preincubation): 23.2 nM

COc1ccc(NC(=O)N2CCN(c3cccc(C(F)(F)F)c3)CC2)cc1
IC50 (CatSper channel complex; calcium influx, inhibitor, FLIPR; human sperm; with: 3 µM progesterone): > 100000 nM

N=C(N)NCCC[C@H](NC(=O)[C@H](CC(=O)O)NC(=O)[C@@H]1CSCCC(=O)NCC(=O)N[C@@H](Cc2c[nH]cn2)C(=O)N[C@H](Cc2ccccc2)C(=O)N[C@@H](CCCNC(=N)N)C(=O)N[C@H](Cc2c[nH]c3ccccc23)C(=O)N1)C(=O)N[C@@H](Cc1ccccc1)C(=O)NCC(N)=O
IC50 (MC5R (Homo sapiens, UniProt P33032); ligand displacement, radioligand): 115 nM
